Published values pooled from the literature.
Numbers after ± are the reported error.
Chain of UniProt Q9NZJ5 (whole entry, looked up): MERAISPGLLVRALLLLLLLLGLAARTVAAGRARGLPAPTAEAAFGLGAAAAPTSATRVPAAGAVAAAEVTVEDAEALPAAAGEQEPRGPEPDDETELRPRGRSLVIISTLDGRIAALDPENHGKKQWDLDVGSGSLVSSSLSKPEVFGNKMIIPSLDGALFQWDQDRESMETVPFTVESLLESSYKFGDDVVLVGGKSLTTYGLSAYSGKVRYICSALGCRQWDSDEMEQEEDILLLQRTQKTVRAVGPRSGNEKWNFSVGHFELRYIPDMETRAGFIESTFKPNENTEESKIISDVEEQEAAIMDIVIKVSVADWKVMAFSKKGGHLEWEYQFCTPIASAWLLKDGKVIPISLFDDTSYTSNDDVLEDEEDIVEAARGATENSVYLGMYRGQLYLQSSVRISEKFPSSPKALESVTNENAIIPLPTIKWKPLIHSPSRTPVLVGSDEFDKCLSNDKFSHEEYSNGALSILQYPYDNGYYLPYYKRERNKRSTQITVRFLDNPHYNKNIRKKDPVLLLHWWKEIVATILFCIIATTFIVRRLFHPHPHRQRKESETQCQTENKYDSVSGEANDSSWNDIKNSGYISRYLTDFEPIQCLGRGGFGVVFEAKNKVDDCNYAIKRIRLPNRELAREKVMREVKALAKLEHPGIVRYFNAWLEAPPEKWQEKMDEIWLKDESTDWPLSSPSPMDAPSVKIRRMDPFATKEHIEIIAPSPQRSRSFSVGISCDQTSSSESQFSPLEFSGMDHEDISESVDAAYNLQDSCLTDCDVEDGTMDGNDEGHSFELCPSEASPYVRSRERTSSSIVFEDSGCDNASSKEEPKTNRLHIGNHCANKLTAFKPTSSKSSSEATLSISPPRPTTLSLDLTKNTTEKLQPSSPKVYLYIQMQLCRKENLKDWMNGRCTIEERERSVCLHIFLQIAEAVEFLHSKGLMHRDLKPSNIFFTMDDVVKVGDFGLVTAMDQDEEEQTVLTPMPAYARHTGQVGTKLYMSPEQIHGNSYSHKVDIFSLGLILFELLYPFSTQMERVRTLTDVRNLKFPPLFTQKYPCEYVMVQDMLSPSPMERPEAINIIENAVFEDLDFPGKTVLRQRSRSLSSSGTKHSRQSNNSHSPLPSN
Chain of UniProt Q9Y5S2 (whole entry, looked up): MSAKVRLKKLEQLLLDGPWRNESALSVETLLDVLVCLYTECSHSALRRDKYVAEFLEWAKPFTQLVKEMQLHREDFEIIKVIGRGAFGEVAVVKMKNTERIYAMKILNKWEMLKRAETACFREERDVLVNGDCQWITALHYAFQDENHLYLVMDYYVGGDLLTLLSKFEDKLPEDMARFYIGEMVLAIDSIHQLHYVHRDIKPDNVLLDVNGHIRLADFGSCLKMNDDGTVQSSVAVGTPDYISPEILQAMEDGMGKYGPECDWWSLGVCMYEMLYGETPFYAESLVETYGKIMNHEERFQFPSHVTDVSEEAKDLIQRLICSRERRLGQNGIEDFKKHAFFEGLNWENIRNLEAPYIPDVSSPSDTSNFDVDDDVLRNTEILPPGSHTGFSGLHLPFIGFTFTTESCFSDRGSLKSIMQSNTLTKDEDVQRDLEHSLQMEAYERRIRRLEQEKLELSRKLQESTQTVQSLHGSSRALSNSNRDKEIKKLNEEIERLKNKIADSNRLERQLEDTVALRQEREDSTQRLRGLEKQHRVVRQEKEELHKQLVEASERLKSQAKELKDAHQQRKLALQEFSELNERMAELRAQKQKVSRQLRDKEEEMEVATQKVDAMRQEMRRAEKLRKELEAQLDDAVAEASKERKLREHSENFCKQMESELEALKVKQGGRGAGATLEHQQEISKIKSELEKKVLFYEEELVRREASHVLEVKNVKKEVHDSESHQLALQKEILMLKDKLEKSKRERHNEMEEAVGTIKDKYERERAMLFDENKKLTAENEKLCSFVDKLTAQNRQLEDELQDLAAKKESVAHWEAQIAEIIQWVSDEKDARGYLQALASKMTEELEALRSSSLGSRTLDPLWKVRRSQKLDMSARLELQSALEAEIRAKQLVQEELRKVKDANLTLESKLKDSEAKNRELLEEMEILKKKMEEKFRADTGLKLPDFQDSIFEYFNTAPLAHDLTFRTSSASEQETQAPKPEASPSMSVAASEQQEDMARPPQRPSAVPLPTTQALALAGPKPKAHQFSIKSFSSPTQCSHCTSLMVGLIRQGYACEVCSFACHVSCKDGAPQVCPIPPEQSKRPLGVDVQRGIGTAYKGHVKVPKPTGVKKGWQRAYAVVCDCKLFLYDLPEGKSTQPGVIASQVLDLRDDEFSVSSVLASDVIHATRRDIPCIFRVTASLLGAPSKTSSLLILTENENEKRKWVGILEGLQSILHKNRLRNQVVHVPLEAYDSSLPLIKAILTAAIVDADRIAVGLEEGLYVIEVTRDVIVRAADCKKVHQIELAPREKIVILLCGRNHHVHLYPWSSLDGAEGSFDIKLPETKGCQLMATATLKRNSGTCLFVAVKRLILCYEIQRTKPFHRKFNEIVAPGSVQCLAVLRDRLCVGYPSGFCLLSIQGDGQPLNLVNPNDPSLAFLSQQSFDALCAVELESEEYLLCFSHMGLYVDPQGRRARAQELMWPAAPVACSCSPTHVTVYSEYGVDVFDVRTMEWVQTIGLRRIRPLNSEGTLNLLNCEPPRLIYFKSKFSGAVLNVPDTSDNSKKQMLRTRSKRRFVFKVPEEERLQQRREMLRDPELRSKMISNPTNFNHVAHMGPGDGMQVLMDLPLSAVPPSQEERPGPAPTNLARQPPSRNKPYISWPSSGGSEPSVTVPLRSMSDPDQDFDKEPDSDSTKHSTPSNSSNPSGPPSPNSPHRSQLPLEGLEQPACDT

| Compound | tested on | test | test system | setting | scale | measurement | value |
| --- | --- | --- | --- | --- | --- | --- | --- |
| CC(C)C[C@H](NC(=O)[C@@H]1CCCN1C(=O)[C@H](CCCCN)NC(=O)[C@@H](N)CO)C(=O)N1CCC[C@H]1C(=O)N[C@@H](CCC(=O)O)C(=O)N[C@H](C(=O)N[C@H](C(=O)N[C@@H](CC(=O)O)C(=O)N[C@@H](CCC(=O)O)C(=O)N[C@@H](Cc1ccc(O)cc1)C(=O)NCC(=O)NCCOCCOCCOCCOCCOCCOCCOCCOCCOCCOCCOCCOCCC(=O)N[C@@H](CCCCNC(=O)CC[C@H](C(=O)O)N1CCN(CC(=O)O)CCN(CC(=O)O)CC1)C(=O)N1CCN(CCCN(C)c2ccc3nccc(C(=O)NCC(=O)N4CC(F)(F)C[C@H]4C#N)c3c2)CC1)[C@@H](C)O)C(C)C [copper-64 labelled] |  | PET | NMRI nude mouse, HT-1080 xenograft, hFAP-negative tumour | intravenous |  | SUVmean | 1.06 ± 0.44 SUV |
| CC(C)(C)C(=O)OCOP(=O)(OCOC(=O)C(C)(C)C)C1CCCN(O)C1=O (stereo not drawn) | SF-539 |  |  |  |  | log TGI | -4.93 log M |
| CC[C@H](C)[C@@H]([C@@H](CC(=O)N1CCC[C@H]1[C@H](OC)[C@@H](C)C(=O)N[C@H](C)[C@@H](O)c1ccccc1)OC)N(C)C(=O)[C@@H](NC(=O)[C@H](C(C)C)N(C)C(=O)OCc1ccc(NC(=O)[C@H](CCCNC(N)=O)NC(=O)[C@@H](NC(=O)CCCCCN2C(=O)CC(SC[C@H](NC(=O)[C@H](CC(=O)O)NC(=O)[C@H](Cc3ccc(O)cc3)NC(=O)[C@H](Cc3c[nH]c4ccccc34)NC(=O)[C@@H](N)CCCNC(=N)N)C(=O)O)C2=O)C(C)C)cc1)C(C)C (stereo partly drawn) |  |  | C57BL/6 mouse, healthy, lung | intraperitoneal, 2.5 mg/kg, 24 h |  | concentration | not detected |
| CCCCCCCCCCCCCCCCCCCCCCCCCC(=O)O[C@H](CCCCCCCCCCCCCC)[C@@H](O)[C@H](CO[C@H]1O[C@H](CO)[C@H](O)[C@H](O)[C@H]1O)NC(=O)OCOC(=O)CCCCCn1cc(CCC(=O)N[C@@H](Cc2ccccc2)C(=O)N[C@@H](Cc2ccccc2)C(=O)N[C@@H](CCCNC(=N)N)C(=O)N[C@@H](CCCCN)C(=O)N[C@@H](CO)C(=O)N[C@H](C(=O)N[C@H](C(=O)N[C@@H](CC(N)=O)C(=O)N[C@@H](Cc2ccccc2)C(=O)N[C@@H](CCC(=O)O)C(=O)N[C@@H](CCCCN)C(=O)N[C@@H](CC(C)C)C(=O)O)[C@@H](C)CC)[C@@H](C)CC)nn1 |  | HPLC-ESI-MS/MS | aqueous ammonium formate 50 mM | 10 µg/mL, eight days, pH 3.0, 20 °C |  | remaining α-GalCer level | < 0.05% |
| CCCCCCCCCCCCCCC(=O)N[C@@H](CCCCNC(=O)CN1CCN(CC(=O)O)CCN(CC(=O)O)CCN(CC(=O)O)CC1)C(=O)NCCCC[C@@H]1NC(=O)[C@@H](Cc2ccccc2)NC(=O)[C@H](CC(=O)O)NC(=O)CNC(=O)[C@H](CCCNC(=N)N)NC1=O [indium-111 labelled] |  |  | female BALB/c nude mice, U-87 MG xenograft, blood | intravenous, dose not given, 4 h |  | blood radioactivity | 5.8 ± 0.44 %ID/g |
| CCCC[C@H](NC(=O)[C@H](CCC(=O)O)NC(=O)[C@H](CCCCN)NC(=O)[C@H](CO)NC(=O)[C@H](Cc1ccccc1)NC(C)=O)C(=O)N[C@@H](CCCNC(=N)N)C(=O)N[C@@H](CC(N)=O)C(=O)N[C@@H](CCCNC(=N)N)C(=O)N[C@@H](Cc1ccc(O)cc1)C(=O)N[C@@H](Cc1c[nH]c2ccccc12)C(=O)N[C@@H](CCCC(=O)NCCN(CC(=O)NCCN(CC(=O)NCCN(CC(=O)NCCN(CC(=O)N[C@@H](CCCNC(=N)N)C(N)=O)C(=O)Cn1cnc2c(=O)[nH]c(N)nc21)C(=O)Cn1ccc(N)nc1=O)C(=O)Cn1ccc(N)nc1=O)C(=O)Cn1cnc2c(=O)[nH]c(N)nc21)C(=O)N[C@@H](CS)C(=O)N[C@@H](C)C(=O)N[C@@H](CC(C)C)C(=O)N[C@@H](CC(=O)O)C(=O)N1CCC[C@H]1C(=O)N[C@@H](CC(N)=O)C(=O)N[C@@H](CC(C)C)C(=O)N[C@H](C(=O)N[C@@H](CC(N)=O)C(=O)N[C@@H](CCC(N)=O)C(=O)N[C@@H](CCC(N)=O)C(=O)N[C@@H](CCCCN)C(=O)N[C@@H](CCCNC(=N)N)C(=O)N[C@@H](C)C(=O)N[C@@H](CCCCNC(=O)CN(CCNC(=O)CN(CCNC(=O)CN(CCNC(=O)CN(CCNC(=O)[C@H](CCCNC(=N)N)NC(C)=O)C(=O)Cn1ccc(N)nc1=O)C(=O)Cn1cnc2c(=O)[nH]c(N)nc21)C(=O)Cn1cnc2c(=O)[nH]c(N)nc21)C(=O)Cn1ccc(N)nc1=O)C(=O)N[C@H](C(=O)N[C@@H](CCCNC(=N)N)C(=O)N[C@@H](CO)C(=O)N[C@H](C(=O)N[C@@H](Cc1ccc(O)cc1)C(=O)N[C@@H](CCC(=O)O)C(=O)N[C@@H](CCC(=O)O)C(=O)NCC(=O)N[C@@H](CCC(=O)O)C(N)=O)[C@@H](C)CC)[C@@H](C)CC)[C@@H](C)O |  |  |  | 37 °C, together with: trypsin | baseline: three-helix ZHER2:342 affibody | half-life ratio | ~1.5 fold |
| COc1ccccc1-c1n[nH]c2nc(N[C@H]3CC[C@H](NS(=O)(=O)CC(C)C)CC3)ncc12 | LINJ.11.1000 | bead competition pull-down | Leishmania extract | 1.25 µM | baseline: vehicle | relative captured amount | 0.84 |
| N=C(N)NCCC[C@@H]1NC(=O)[C@H](CCCCNC(=O)CCC(NC(=S)Nc2ccc(CC3CN(CC(=O)O)CCN(CC(=O)O)CCN(CC(=O)O)CCN3CC(=O)O)cc2)C(=O)NCCCC[C@@H]2NC(=O)[C@@H](Cc3ccc(O)cc3)NC(=O)[C@H](CC(=O)O)NC(=O)CNC(=O)[C@H](CCCNC(=N)N)NC2=O)NC(=O)[C@@H](Cc2ccc(O)cc2)NC(=O)[C@H](CC(=O)O)NC(=O)CNC1=O (stereo partly drawn) [scandium-44 labelled] |  | ex vivo γ-counting | female athymic nude mice, U-87 MG xenograft, spleen | intravenous, 4 h |  | tissue uptake | 0.83 ± 0.45 %ID/g |
| CC(=O)N[C@@H](CC(C)C)C(=O)N[C@H](C(=O)N[C@@H](Cc1ccccc1)C(=O)N[C@]1(C)CCCCCC/C=C/CCC[C@@](C)(C(=O)N[C@@H](C)C(=O)N[C@@H](C)C(=O)N[C@@H](C)C(=O)N[C@@H](C)C(=O)N[C@@H](C)C(=O)N[C@H](C)C(N)=O)NC(=O)[C@H](CC(C)C)NC(=O)[C@H](CCCCNC(=O)CCNC(=O)C[C@@H]2N=C(c3ccc(Cl)cc3)c3c(sc(C)c3C)-n3c(C)nnc32)NC(=O)[C@H](C)NC(=O)[C@H](Cc2c[nH]c3ccccc23)NC(=O)[C@H](Cc2ccc(O)cc2)NC(=O)[C@H](C)NC1=O)[C@@H](C)O |  | equilibrium dialysis | mouse plasma | 2 µM, 6 h |  | plasma chamber concentration | 920 nM |
| CC(C)C[C@H](NC(=O)[C@@H](N)Cc1ccccc1)C(=O)N[C@@H](C)C(=O)N[C@H]1CSCc2cccc(n2)CSC[C@@H](C(=O)N[C@H](C(=O)NCC(=O)N[C@@H](CO)C(=O)N[C@@H](Cc2c[nH]c3ccccc23)C(=O)N[C@@H](CCCCNC(=O)CN2CCN(CC(=O)O)CCN(CC(=O)O)CCN(CC(=O)O)CC2)C(N)=O)[C@@H](C)O)NC(=O)[C@H](Cc2c[nH]cn2)NC(=O)[C@H]([C@@H](C)O)NC(=O)[C@H](CCC(=O)O)NC(=O)[C@@H]2CCCN2C1=O [gallium-68 labelled] |  | radio-HPLC | PBS | 2 h, 37 °C |  | intact fraction | > 99% |
| CC(C)C[C@H](NC(=O)[C@@H]1CCCN1C(=O)[C@H](CCCCN)NC(=O)[C@@H](N)CO)C(=O)N1CCC[C@H]1C(=O)N[C@@H](CCC(=O)O)C(=O)N[C@H](C(=O)N[C@H](C(=O)N[C@@H](CC(=O)O)C(=O)N[C@@H](CCC(=O)O)C(=O)N[C@@H](Cc1ccc(O)cc1)C(=O)NCC(=O)NCCOCCOCCOCCOCCOCCOCCOCCOCCOCCOCCOCCOCCOCCOCCOCCOCCOCCOCCOCCOCCOCCOCCOCCOCCC(=O)N[C@@H](CCCCNC(=O)CC[C@H](C(=O)O)N1CCN(CC(=O)O)CCN(CC(=O)O)CC1)C(=O)N1CCN(CCCN(C)c2ccc3nccc(C(=O)NCC(=O)N4CC(F)(F)C[C@H]4C#N)c3c2)CC1)[C@@H](C)O)C(C)C [copper-64 labelled] |  | PET | NMRI nude mouse, HT-1080 xenograft, hFAP-negative tumour | intravenous |  | SUVmean | 0.88 ± 0.34 SUV |
| CCCC[C@H](NC(=O)CN1CCC(NC(=S)Nc2ccc(C[C@H]3CN(CC(N)=O)CCN(CC(N)=O)CCN(CC(N)=O)CCN3CC(N)=O)cc2)CC1)C(=O)N[C@H]1CC(=O)NCCCC[C@@H](C(N)=O)NC(=O)[C@H](Cc2c[nH]c3ccccc23)NC(=O)[C@H](CCCNC(=N)N)NC(=O)[C@@H](Cc2ccccc2)NC(=O)[C@H](Cc2c[nH]cn2)NC1=O |  | iTLC | mouse serum | 72 h, 37 °C, lead-203-labelled |  | intact complex | 100% |
| CC[C@H](C)[C@H](NC(=O)[C@H](CO)NC(=O)[C@H](Cc1ccc(O)cc1)NC(=O)[C@H](Cc1ccc(O)cc1)NC(=O)[C@H](CC(N)=O)NC(=O)CNC(=O)[C@H](CO)NC(=O)[C@H](Cc1ccc(O)cc1)NC(=O)[C@H](CO)NC(=O)[C@H](CO)NC(=O)[C@H](CC(N)=O)NC(=O)COCCOCCNC(=O)CN1CCN(CC(=O)O)CCN(CC(=O)O)CCN(CC(=O)O)CC1)C(=O)N[C@@H](CC(C)C)C(N)=O [copper-64 labelled] |  | dynamic PET | KPC mouse, pancreatic cancer model, blood | intravenous, 0.9 min, 49 days after tamoxifen |  | tumour uptake | 32.3 %ID/mL |
| CCCC[C@H](NC(=O)CN1CCC(NC(=O)CN2CCN(CC(N)=O)CCN(CC(N)=O)CCN(CC(N)=O)CC2)CC1)C(=O)N[C@H]1CC(=O)NCCCC[C@@H](C(N)=O)NC(=O)[C@H](Cc2c[nH]c3ccccc23)NC(=O)[C@H](CCCNC(=N)N)NC(=O)[C@@H](Cc2ccccc2)NC(=O)[C@H](Cc2c[nH]cn2)NC1=O |  | iTLC | mouse serum | 72 h, 37 °C, lead-203-labelled |  | intact complex | 100% |
| C[C@H](NC(=O)[C@H](CCCNC(=N)N)NC(=O)[C@@H](N)Cc1ccccc1)C(=O)N[C@H]1CSCc2cccc(n2)CSC[C@@H](C(=O)N[C@H](C(=O)NCC(=O)N[C@@H](CO)C(=O)N[C@@H](Cc2ccc(O)cc2)C(=O)N[C@@H](Cc2c[nH]cn2)C(=O)N[C@@H](CCCCNC(=O)CN2CCN(CC(=O)O)CCN(CC(=O)O)CCN(CC(=O)O)CC2)C(=O)O)[C@@H](C)O)NC(=O)[C@H](CC(=O)O)NC(=O)[C@H](Cc2ccccc2)NC(=O)[C@@H]2CCCN2C1=O [gallium-68 labelled] |  | radio-HPLC | PBS | 2 h, 37 °C |  | intact fraction | > 99% |
| CN(C)[C@H]1C[C@@]23CC[C@@]4(O2)C(=CC[C@]2(C)[C@@H](c5ccc6ccncc6c5)CC[C@H]24)C=C3[C@@H](O)[C@@H]1O | Eukaryotic translation initiation factor 2-alpha kinase 3 (EIF2AK3, Homo sapiens, UniProt Q9NZJ5) | ATP probe labelling, inhibitor, KiNativ profiling |  | 1 µM |  | inhibition | -0.8% |
| O=C1NC2(CC2)COc2ncc(F)cc2[C@H]2COCCN2c2ccn3ncc1c3n2 |  |  | Sprague-Dawley rat, male, serum | oral, 2.5 mg/kg/day, 4 weeks daily, end of recovery period |  | total cholesterol | 1.34 ± 0.28 mmol/L |
| CC(C)[C@H]1NC(=O)C[C@H]2/C=C/CCSSC[C@@H](NC1=O)C(=O)N[C@H](Cc1cccc3ccccc13)C(=O)NCC(=O)O2 | Serine/threonine-protein kinase MRCK beta (CDC42BPB, Homo sapiens, UniProt Q9Y5S2) | enzyme activity, inhibitor |  | 10 µM |  | inhibition | -1.4% |

Some of these lines once more:
| Compound | tested on | test | test system | setting | scale | measurement | value |
| --- | --- | --- | --- | --- | --- | --- | --- |
| CC[C@H](C)[C@H](NC(=O)[C@H](CO)NC(=O)[C@H](Cc1ccc(O)cc1)NC(=O)[C@H](Cc1ccc(O)cc1)NC(=O)[C@H](CC(N)=O)NC(=O)CNC(=O)[C@H](CO)NC(=O)[C@H](Cc1ccc(O)cc1)NC(=O)[C@H](CO)NC(=O)[C@H](CO)NC(=O)[C@H](CC(N)=O)NC(=O)COCCOCCNC(=O)CN1CCN(CC(=O)O)CCN(CC(=O)O)CCN(CC(=O)O)CC1)C(=O)N[C@@H](CC(C)C)C(N)=O [copper-64 labelled] |  | dynamic PET | KPC mouse, pancreatic cancer model, blood | intravenous, 0.9 min, 49 days after tamoxifen |  | tumour uptake | 32.3 %ID/mL |
